Published values of several laboratories.
Parts stem from different laboratories: compare values within a part only. Substitutions count along the parent as printed.
UniProt Q9SKN5, sequence (whole entry, looked up): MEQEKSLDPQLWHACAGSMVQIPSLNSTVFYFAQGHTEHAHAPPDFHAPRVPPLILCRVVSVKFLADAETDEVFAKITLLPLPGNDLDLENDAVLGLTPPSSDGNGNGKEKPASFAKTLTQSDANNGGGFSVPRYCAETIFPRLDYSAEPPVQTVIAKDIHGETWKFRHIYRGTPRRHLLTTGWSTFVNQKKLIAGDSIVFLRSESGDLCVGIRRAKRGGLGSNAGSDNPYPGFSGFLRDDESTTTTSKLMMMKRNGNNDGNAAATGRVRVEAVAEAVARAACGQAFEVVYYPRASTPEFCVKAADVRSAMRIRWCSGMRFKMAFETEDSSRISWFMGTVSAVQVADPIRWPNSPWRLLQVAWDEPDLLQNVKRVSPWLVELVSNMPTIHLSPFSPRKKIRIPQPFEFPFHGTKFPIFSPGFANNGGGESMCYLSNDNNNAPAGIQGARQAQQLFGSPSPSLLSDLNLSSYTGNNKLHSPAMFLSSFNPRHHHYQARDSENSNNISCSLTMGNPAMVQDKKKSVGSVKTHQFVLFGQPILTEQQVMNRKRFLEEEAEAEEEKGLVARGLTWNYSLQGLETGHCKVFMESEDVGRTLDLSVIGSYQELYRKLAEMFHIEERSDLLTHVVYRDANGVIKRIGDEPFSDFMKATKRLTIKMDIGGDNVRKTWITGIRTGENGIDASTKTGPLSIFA
UniProt Q9C5W9, sequence (whole entry, looked up): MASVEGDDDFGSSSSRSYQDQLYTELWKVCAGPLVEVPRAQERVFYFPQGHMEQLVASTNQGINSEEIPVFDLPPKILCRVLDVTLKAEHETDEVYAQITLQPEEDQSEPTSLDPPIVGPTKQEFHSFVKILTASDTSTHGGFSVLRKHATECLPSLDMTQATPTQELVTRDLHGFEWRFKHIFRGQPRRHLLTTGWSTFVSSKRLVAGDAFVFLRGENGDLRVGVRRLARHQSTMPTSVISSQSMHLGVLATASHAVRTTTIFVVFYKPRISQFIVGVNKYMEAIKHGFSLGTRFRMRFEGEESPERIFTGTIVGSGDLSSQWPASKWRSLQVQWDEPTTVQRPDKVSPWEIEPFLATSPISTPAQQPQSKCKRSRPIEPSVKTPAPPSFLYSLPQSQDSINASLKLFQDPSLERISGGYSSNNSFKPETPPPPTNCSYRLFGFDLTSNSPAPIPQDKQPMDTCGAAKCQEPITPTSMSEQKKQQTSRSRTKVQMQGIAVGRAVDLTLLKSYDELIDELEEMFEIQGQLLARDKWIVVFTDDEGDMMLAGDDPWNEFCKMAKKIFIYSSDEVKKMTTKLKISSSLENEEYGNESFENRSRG
UniProt Q9FX25, sequence (whole entry, looked up): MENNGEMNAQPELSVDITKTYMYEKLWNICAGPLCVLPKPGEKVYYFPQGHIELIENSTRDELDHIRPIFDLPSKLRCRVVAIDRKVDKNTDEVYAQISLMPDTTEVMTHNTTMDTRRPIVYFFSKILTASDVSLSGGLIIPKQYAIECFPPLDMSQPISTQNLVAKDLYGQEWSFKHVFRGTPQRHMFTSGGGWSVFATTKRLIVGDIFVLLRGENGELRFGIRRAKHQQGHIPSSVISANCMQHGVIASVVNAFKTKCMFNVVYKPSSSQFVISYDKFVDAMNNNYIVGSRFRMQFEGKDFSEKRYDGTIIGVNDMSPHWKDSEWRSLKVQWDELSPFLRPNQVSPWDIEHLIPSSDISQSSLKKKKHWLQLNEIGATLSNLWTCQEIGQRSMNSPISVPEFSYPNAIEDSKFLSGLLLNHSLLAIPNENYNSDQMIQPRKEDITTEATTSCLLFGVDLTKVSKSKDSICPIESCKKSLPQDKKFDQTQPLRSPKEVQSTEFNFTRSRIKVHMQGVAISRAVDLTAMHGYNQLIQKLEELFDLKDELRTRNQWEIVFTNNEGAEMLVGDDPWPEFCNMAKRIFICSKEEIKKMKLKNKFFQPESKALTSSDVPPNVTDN

Study 1
Target: ABI1, truncated, D143A, DHFR fusion (Arabidopsis thaliana)
Method: DHFR PCA, deep sequencing
Sample: yeast
Setting: methotrexate growth selection, single substitutions
With: (+)-ABA 0.11 µM
Relative to: wild-type fitted maximum
Direction: higher = stronger binding
Starting sequence: PYL1, truncated, DHFR fusion (Arabidopsis thaliana); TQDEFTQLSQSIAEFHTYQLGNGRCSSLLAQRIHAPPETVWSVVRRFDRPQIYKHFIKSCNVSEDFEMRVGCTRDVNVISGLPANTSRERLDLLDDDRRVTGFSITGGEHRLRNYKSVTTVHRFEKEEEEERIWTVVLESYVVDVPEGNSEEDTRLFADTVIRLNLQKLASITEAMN
For `R45H`, “relative binding score” read -7.25%.
`F124C` — result for “relative binding score”: 25%.
`P83L`: “relative binding score” 3.52%.
For `I162W`, “relative binding score” read 1.98%.

Study 2
Molecule: B1 (ARF9 519-638)
Method: two-hybrid
Setting: weak activation fusion
Relative to: out of 4 tests
Direction: higher = firmer interaction
T1: itself; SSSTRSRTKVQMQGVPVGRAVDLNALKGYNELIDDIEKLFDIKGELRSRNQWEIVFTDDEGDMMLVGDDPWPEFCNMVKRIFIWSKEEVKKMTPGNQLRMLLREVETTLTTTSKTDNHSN
B1: ARF9 519-638 (Arabidopsis thaliana, UniProt Q9XED8); chain SSSTRSRTKVQMQGVPVGRAVDLNALKGYNELIDDIEKLFDIKGELRSRNQWEIVFTDDEGDMMLVGDDPWPEFCNMVKRIFIWSKEEVKKMTPGNQLRMLLREVETTLTTTSKTDNHSN
For ARF18 482-602 (Arabidopsis thaliana, UniProt Q9C5W9): positive tests read 1.
It gave 0 for positive tests (ARF13 (Arabidopsis thaliana, UniProt Q9FX25)).
For T1, itself: positive tests read 1.
ARF10 575-693 (Arabidopsis thaliana, UniProt Q9SKN5) — positive tests: 0.
ARF22 498-598 (Arabidopsis thaliana, UniProt Q9C8N7) — positive tests: 0.

Study 3
Target: Histone acetyltransferase KAT6A, both winged helices, GST fusion (KAT6A, Homo sapiens, UniProt Q92794, residues 1-181)
Method: protein binding microarray
Form: double-stranded DNA, one strand shown
Sample: in vitro
Tested at: not given
Setting: 8-mer, flanks averaged, mean of 2 arrays, mostly near background
Relative to: not given
Direction: higher = stronger binding
Construct (chain): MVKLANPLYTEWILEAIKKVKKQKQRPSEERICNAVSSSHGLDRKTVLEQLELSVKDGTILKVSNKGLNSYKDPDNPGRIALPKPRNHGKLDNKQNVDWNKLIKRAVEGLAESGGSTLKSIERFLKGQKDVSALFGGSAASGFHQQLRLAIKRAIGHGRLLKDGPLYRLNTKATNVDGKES
`AGGGTCGA` gave an E-score of -0.085.
For `CGGTAGAG`, the E-score was 0.148.
The E-score of `ATTGATGA` is reported as -0.12.
For `AAACCAAA`, the E-score was -0.0644.
For `CATCACAA`, the E-score was -0.0279.
`CACGGTGG` gave an E-score of -0.0592.
The E-score of `GGCGTGGA` is reported as 0.108.
`ACGGCCTC` gave an E-score of 0.146.

Other studies, line by line
With `PhoQ, residues 284 288 289 292 302 303 ASSHFY` the fold induction was 25.8 (PhoP, residues 12 14 15 18 19 IQSYL (Escherichia coli, UniProt P23836); Sort-seq, measured: YFP reporter; E. coli; PhoQ-PhoP variant library, with: 10 µM Mg2+; relative to: high Mg2+ state, higher = stronger signaling).
